{"data": "Results pooled from the literature", "organism": "Acinetobacter baumannii"}
{"SMILES": "CC[C@H](C)[C@H](NC(=O)CNC(=O)[C@H](CCCNC(=N)N)NC(=O)[C@H](Cc1ccccc1)NC(=O)[C@@H](NC(=O)[C@H](Cc1c[nH]cn1)NC(=O)[C@H](Cc1c[nH]cn1)NC(=O)[C@H](Cc1ccccc1)NC(=O)[C@@H](N)Cc1ccccc1)[C@@H](C)CC)C(=O)N[C@H](C(=O)N[C@@H](Cc1c[nH]cn1)C(=O)N[C@H](C(=O)NCC(=O)N[C@@H](CCCCN)C(=O)N[C@H](C(=O)N[C@H](C(=O)N[C@@H](Cc1c[nH]cn1)C(=O)N[C@@H](CCCNC(=N)N)C(=O)N[C@@H](CC(C)C)C(=O)N[C@H](C(=O)N[C@H](C(=O)NCC(N)=O)[C@@H](C)O)C(C)C)[C@@H](C)CC)[C@@H](C)O)C(C)C)C(C)C", "system": "colistin-resistant clinical", "setting": "18 h, 37 °C", "measurement": "MIC", "value": "3.1 µg/mL"}
{"SMILES": "CC(C)C[C@H](NC(=O)[C@H](CCCCN)NC(=O)[C@H](CCCNC(=N)N)NC(=O)[C@@H](NC(=O)[C@H](CCCCN)NC(=O)[C@H](CCCCN)NC(=O)[C@@H](NC(=O)[C@H](Cc1ccccc1)NC(=O)[C@H](CCCNC(=N)N)NC(=O)[C@@H](N)CCCNC(=N)N)C(C)C)C(C)C)C(=O)N[C@H](C(=O)N[C@@H](CCCCN)C(=O)O)C(C)C", "assay": "bacterial killing, colony count", "system": "ATCC 17978", "setting": "1 h, pH 7, 37 °C", "measurement": "EC50", "value": "5.9 µg/mL"}
{"SMILES": "CC[C@H](C)[C@H](NC(=O)[C@H](C)NC(=O)[C@H](C)NC(=O)[C@H](CC(N)=O)NC(=O)[C@H](C)NC(=O)[C@H](C)NC(=O)[C@H](C)NC(=O)[C@H](CCCNC(=N)N)NC(=O)[C@H](CC(C)C)NC(=O)[C@@H](NC(=O)[C@H](CCC(=O)O)NC(=O)[C@@H]1CCCN1C(=O)CNC(=O)[C@H](CCCCN)NC(=O)[C@H](CCC(=O)O)NC(=O)[C@H](CCCCN)NC(=O)[C@@H](NC(=O)[C@H](Cc1ccccc1)NC(=O)[C@H](CC(=O)O)NC(=O)[C@H](CCCCN)NC(=O)[C@H](C)NC(=O)[C@H](CCCCN)NC(=O)[C@H](CC(N)=O)NC(=O)[C@H](CC(C)C)NC(=O)[C@H](Cc1c[nH]c2ccccc12)NC(=O)[C@H](CC(=O)O)NC(=O)[C@H](CCCCN)NC(=O)[C@H](Cc1c[nH]c2ccccc12)NC(=O)CN)[C@@H](C)CC)[C@@H](C)CC)C(=O)N[C@@H](CC(N)=O)C(=O)O", "assay": "broth microdilution", "system": "ATCC 19606", "setting": "20 h, 37 °C", "measurement": "MIC", "value": "1.48 µM"}
{"SMILES": "CC(C)C[C@H](NC(=O)[C@H](CCCCN)NC(=O)[C@H](CCCCN)NC(=O)[C@H](CC(C)C)NC(=O)[C@H](CCCCN)NC(=O)[C@@H](N)CCCNC(=N)N)C(=O)N[C@@H](Cc1c[nH]c2ccccc12)C(=O)N[C@@H](CCCNC(=N)N)C(=O)N[C@@H](CCCCN)C(=O)N[C@@H](Cc1ccccc1)C(=O)N[C@@H](CCCNC(=N)N)C(=O)O", "assay": "bacterial killing, colony count", "system": "ATCC 17978", "setting": "1 h, pH 7, 37 °C", "measurement": "EC50", "value": "3.1 µg/mL"}
{"SMILES": "C[C@@H](O)[C@H]1C(=O)N2C(C(=O)O)=C(SCCN=CN)C[C@H]12", "assay": "broth microdilution", "system": "ATCC 17978 pET-RA-KmR OXA-23", "setting": "without inhibitor", "measurement": "MIC", "value": "8 µg/mL"}
{"SMILES": "CC[C@H](C)[C@H](NC(=O)[C@H](CCCCN)NC(=O)[C@H](CC(C)C)NC(=O)[C@H](CC(C)C)NC(=O)[C@H](C)NC(=O)CNC(=O)[C@H](CC(C)C)NC(=O)[C@@H](N)Cc1ccccc1)C(=O)NCC(=O)N[C@@H](C)C(=O)N[C@@H](CCCCN)C(=O)N[C@@H](CC(C)C)C(=O)N[C@@H](CC(C)C)C(=O)N1CCC[C@H]1C(=O)N[C@@H](CO)C(=O)N[C@H](C(=O)N[C@H](C(=O)NCC(=O)N[C@@H](CC(C)C)C(=O)N[C@@H](Cc1ccccc1)C(=O)N[C@@H](CCCCN)C(=O)N[C@@H](CCCCN)C(=O)N[C@@H](CCCCN)C(=O)N[C@@H](CCC(N)=O)C(=O)N[C@@H](CCC(N)=O)C(=O)O)C(C)C)C(C)C", "assay": "broth microdilution", "system": "ATCC 19606", "setting": "20 h, 37 °C", "measurement": "MIC", "value": "1.4 to 2.9 µM"}
{"SMILES": "CC[C@H](C)[C@H](NC(=O)[C@H](Cc1c[nH]cn1)NC(=O)[C@H](Cc1c[nH]cn1)NC(=O)[C@H](Cc1ccccc1)NC(=O)[C@@H](N)Cc1ccccc1)C(=O)N[C@@H](Cc1ccccc1)C(=O)N[C@@H](CCCNC(=N)N)C(=O)NCC(=O)N[C@@H](C)C(=O)N[C@H](C(=O)N[C@@H](Cc1c[nH]cn1)C(=O)N[C@H](C(=O)NCC(=O)N[C@@H](CCCCN)C(=O)N[C@H](C(=O)N[C@H](C(=O)N[C@@H](Cc1c[nH]cn1)C(=O)N[C@@H](CCCNC(=N)N)C(=O)N[C@@H](CC(C)C)C(=O)N[C@H](C(=O)N[C@H](C(=O)NCC(N)=O)[C@@H](C)O)C(C)C)[C@@H](C)CC)[C@@H](C)O)C(C)C)C(C)C", "system": "colistin-resistant clinical", "setting": "18 h, 37 °C", "measurement": "MIC", "value": "3.1 µg/mL"}
{"SMILES": "CC(C)C[C@H](NC(=O)[C@H](CCCNC(=N)N)NC(=O)[C@H](CCCCN)NC(=O)[C@@H](N)Cc1c[nH]c2ccccc12)C(=O)N[C@@H](CCCNC(=N)N)C(=O)N[C@@H](Cc1c[nH]c2ccccc12)C(=O)N[C@@H](CCCNC(=N)N)C(=O)N[C@@H](CCCNC(=N)N)C(=O)N[C@@H](Cc1ccccc1)C(=O)N[C@@H](Cc1ccccc1)C(=O)O", "assay": "bacterial killing, colony count", "system": "ATCC 17978", "setting": "1 h, pH 7, 37 °C", "measurement": "EC50", "value": "19 µg/mL"}
{"SMILES": "CC[C@H](C)[C@H](NC(=O)[C@H](CC(C)C)NC(=O)CNC(=O)[C@@H]1CCCN1C(=O)[C@H](CC(C)C)NC(=O)[C@H](C)NC(=O)[C@H](CCCCN)NC(=O)CNC(=O)[C@H](CC(C)C)NC(=O)[C@H](CCSC)NC(=O)[C@H](CCCCN)NC(=O)[C@H](C)NC(=O)[C@H](C)NC(=O)[C@H](C)NC(=O)CNC(=O)[C@H](Cc1c[nH]c2ccccc12)NC(=O)[C@@H](N)Cc1ccccc1)C(=O)N[C@@H](CO)C(=O)N[C@@H](CCSC)C(=O)N[C@@H](Cc1ccccc1)C(=O)N[C@@H](CCC(N)=O)C(=O)N[C@@H](CCCCN)C(=O)N[C@@H](CC(N)=O)C(=O)O", "assay": "broth microdilution", "system": "ATCC 19606", "setting": "20 h, 37 °C", "measurement": "MIC", "value": "12.9 µM"}
{"note": "For quick reference, copied from above:"}
{"SMILES": "CC[C@H](C)[C@H](NC(=O)[C@H](C)NC(=O)[C@H](C)NC(=O)[C@H](CC(N)=O)NC(=O)[C@H](C)NC(=O)[C@H](C)NC(=O)[C@H](C)NC(=O)[C@H](CCCNC(=N)N)NC(=O)[C@H](CC(C)C)NC(=O)[C@@H](NC(=O)[C@H](CCC(=O)O)NC(=O)[C@@H]1CCCN1C(=O)CNC(=O)[C@H](CCCCN)NC(=O)[C@H](CCC(=O)O)NC(=O)[C@H](CCCCN)NC(=O)[C@@H](NC(=O)[C@H](Cc1ccccc1)NC(=O)[C@H](CC(=O)O)NC(=O)[C@H](CCCCN)NC(=O)[C@H](C)NC(=O)[C@H](CCCCN)NC(=O)[C@H](CC(N)=O)NC(=O)[C@H](CC(C)C)NC(=O)[C@H](Cc1c[nH]c2ccccc12)NC(=O)[C@H](CC(=O)O)NC(=O)[C@H](CCCCN)NC(=O)[C@H](Cc1c[nH]c2ccccc12)NC(=O)CN)[C@@H](C)CC)[C@@H](C)CC)C(=O)N[C@@H](CC(N)=O)C(=O)O", "assay": "broth microdilution", "system": "ATCC 19606", "setting": "20 h, 37 °C", "measurement": "MIC", "value": "1.48 µM"}
{"SMILES": "CC(C)C[C@H](NC(=O)[C@H](CCCCN)NC(=O)[C@H](CCCCN)NC(=O)[C@H](CC(C)C)NC(=O)[C@H](CCCCN)NC(=O)[C@@H](N)CCCNC(=N)N)C(=O)N[C@@H](Cc1c[nH]c2ccccc12)C(=O)N[C@@H](CCCNC(=N)N)C(=O)N[C@@H](CCCCN)C(=O)N[C@@H](Cc1ccccc1)C(=O)N[C@@H](CCCNC(=N)N)C(=O)O", "assay": "bacterial killing, colony count", "system": "ATCC 17978", "setting": "1 h, pH 7, 37 °C", "measurement": "EC50", "value": "3.1 µg/mL"}
